# Assay results pooled from the literature.
# Every numbered part comes from another study and shows a few of its results, in no order.

# Set 1
# Target: Interferon regulatory factor 7, full length, phosphomimetic (IRF7, Homo sapiens, UniProt Q92985, residues 1-503, S471D/S472D/S475D/S476D/S477D/S483D/S484D/S487D)
# Sequence of UniProt Q92985 (whole entry, unmodified, looked up): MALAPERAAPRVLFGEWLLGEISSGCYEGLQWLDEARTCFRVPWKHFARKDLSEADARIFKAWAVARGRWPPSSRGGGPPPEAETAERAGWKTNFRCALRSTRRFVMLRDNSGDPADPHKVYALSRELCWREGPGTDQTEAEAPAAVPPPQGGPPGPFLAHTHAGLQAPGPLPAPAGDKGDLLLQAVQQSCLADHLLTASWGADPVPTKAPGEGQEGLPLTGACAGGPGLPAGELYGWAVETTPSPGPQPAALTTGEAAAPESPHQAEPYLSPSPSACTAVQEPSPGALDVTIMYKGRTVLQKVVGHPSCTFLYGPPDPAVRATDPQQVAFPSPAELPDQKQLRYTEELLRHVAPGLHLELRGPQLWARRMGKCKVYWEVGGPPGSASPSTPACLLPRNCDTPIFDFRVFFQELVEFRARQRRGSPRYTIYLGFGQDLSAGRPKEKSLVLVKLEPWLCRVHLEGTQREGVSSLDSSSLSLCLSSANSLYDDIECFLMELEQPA
# Method: protein-binding microarray
# Form: double-stranded DNA, one strand shown
# Medium: in vitro
# Tested at: 2200 nM top
# Setting: 60-bp whole probe
# Together with: salmon DNA 0.4 mg/ml
# Reference: random background probes
# Direction: higher = stronger binding
# Shared flanks, not repeated: GCCTAGCAC … GTCTTGATTCGCTTGACGCTGCTG
Oligonucleotide,fitted relative affinity [z-score]
TTAGATATCAGACTGGATTAGTGCTAG,-0.396
TTAGGACTGGGAATGGGTTAGTGCTAG,-0.709
GAGGGGGCAGGGACTCAGGGGTGCTAG,0.487
TTAGGTTTCGGGATTCGGTTAGTGCTA,5.81
AACGGTTTCGGTTCCGGGACGTGCTAG,11.4
TTAGATTTCAGTCTCGATTCGTGCTAG,1.89
ATATATGTAATCATTCACCTGGTGCTA,0.792

# Set 2
# Target: RNA binding protein fox-1 homolog 2, RRM domain, GST-SBP tag (RBFOX2, Homo sapiens, UniProt O43251-10, residues 100-194)
# Method: RNA Bind-n-Seq
# Form: RNA
# Medium: in vitro
# Tested at: 365 nM
# Setting: natural RNA segment, single round, ends assumed
# Reference: no-protein control
# Direction: higher = stronger binding
# Shared flanks, not repeated: GGGAGUUCUACAGUCCGACGAUC … UGGAAUUCUCGGGUGCCAA
# Target sequence (chain): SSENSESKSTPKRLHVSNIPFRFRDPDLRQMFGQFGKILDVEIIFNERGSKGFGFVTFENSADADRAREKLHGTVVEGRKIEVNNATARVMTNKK
Oligonucleotide,RBNS enrichment (R)
ACUUGUCUUGAAAACUGUGCAACUUUUUAAAGUAAAUUAUUAAGCAGACUGGAAAAGUGAUGUAUUUUCAUAGUGACCUGUGUUUCACUUAAUGUUUCUUAGAGCCAAGU,0.291
UGAACAUAGGUCUCUGGCCUCACGGAGCUCCCAGUCCUAAUCACAUUCAAGGUCACCAGGUACAGUUGUACAGGUUGUACACUGCAGGAGAGUGCCUGGCAAAAAGAUCA,0.354
UAGCUCUUUCUGUUCUGCCAUUCCCAACAUUCCUGGGGGAAAGGAGACUCAAUGAGUUAAUACUAUUUCACUGAGCCCAAGAUGGAAACUUGGUUUGACCUAAAACAUCU,0.308
UCAUCUCACGGACCCUCCGUUCUGCAUUAAGCCCCAGGUUCUCUUCUGGCUUUGAAAGGGCCCGAGUGCUCCCAGUGUAGCUUCGUCACAUCGUCACGAGCCCCUGUGGU,0.471
CAGGAUCCCAGACGUUCAGAACCAGAUUCUCAUUGCUUUGUAUCUUUCACGUUGUUUUCGCUGCUAUUGGAGGGUCAGUUUUGUUUUGUUUUGUUUUACAAUGUCAGACU,0.497
GGGUUGCGGUGCAUGAAACCGCUGGGUCCUGGCUGUCACUCCUGUUGGGGGUCUGAAGGUGGCUGGCACUGGGCCUCAGGUCACCCUGAGCCAGUCCCGUGGCCACUUCA,4.51
CCAAAUUUAAUACAUGUGAUUUGUGAUAUGUAGCUAAACUUAAUCCAGCUAAUGAAUAUUCUUCAUCUGUAACUUGUAGUAAAAUAGCUUUUACCUAACCCUUUUCCCAA,0.65
AUAGGUACCCAACUGGUUGAUUAUUAAUCAAGAAUACAGAACUUUAUUUAAUAAUUAGCACACCCUGAUCUGGCUUCUUUGCUUGCUUUUCUUUGGAUCCCUGUCCAAUA,0.901

# Set 3
# Target: Sal-like protein 4, full length isoform B (SALL4, Homo sapiens, UniProt Q9UJQ4-2, residues 1-616)
# Method: universal PBM
# Form: double-stranded DNA, one strand shown
# Medium: in vitro
# Tested at: not given
# Setting: 8-mer, flanks averaged, mean of replicates
# Direction: higher = stronger binding
Oligonucleotide,E-score
GCGAATCA,-0.0211
GGCCTTCA,-0.127
TGATGGAA,0.129
ACGCCTGA,0.0416
GTAAAGAA,0.144

# Further values, each from its own experiment
Molecule,target,test,system,setting,scale,endpoint,result
"PhoQ, residues 284 288 289 292 302 303 SQSLSM","PhoP, residues 12 14 15 18 19 SEGLL (Escherichia coli, UniProt P23836)","Sort-seq, measured: YFP reporter",E. coli,"PhoQ-PhoP variant library, together with: 10 µM Mg2+","reference: high Mg2+ state, higher = stronger signaling",fold induction,11.1
